Measured values pooled from the literature.
Parts stem from different laboratories: compare values within a part only.
UniProt Q13523, sequence (whole entry, looked up): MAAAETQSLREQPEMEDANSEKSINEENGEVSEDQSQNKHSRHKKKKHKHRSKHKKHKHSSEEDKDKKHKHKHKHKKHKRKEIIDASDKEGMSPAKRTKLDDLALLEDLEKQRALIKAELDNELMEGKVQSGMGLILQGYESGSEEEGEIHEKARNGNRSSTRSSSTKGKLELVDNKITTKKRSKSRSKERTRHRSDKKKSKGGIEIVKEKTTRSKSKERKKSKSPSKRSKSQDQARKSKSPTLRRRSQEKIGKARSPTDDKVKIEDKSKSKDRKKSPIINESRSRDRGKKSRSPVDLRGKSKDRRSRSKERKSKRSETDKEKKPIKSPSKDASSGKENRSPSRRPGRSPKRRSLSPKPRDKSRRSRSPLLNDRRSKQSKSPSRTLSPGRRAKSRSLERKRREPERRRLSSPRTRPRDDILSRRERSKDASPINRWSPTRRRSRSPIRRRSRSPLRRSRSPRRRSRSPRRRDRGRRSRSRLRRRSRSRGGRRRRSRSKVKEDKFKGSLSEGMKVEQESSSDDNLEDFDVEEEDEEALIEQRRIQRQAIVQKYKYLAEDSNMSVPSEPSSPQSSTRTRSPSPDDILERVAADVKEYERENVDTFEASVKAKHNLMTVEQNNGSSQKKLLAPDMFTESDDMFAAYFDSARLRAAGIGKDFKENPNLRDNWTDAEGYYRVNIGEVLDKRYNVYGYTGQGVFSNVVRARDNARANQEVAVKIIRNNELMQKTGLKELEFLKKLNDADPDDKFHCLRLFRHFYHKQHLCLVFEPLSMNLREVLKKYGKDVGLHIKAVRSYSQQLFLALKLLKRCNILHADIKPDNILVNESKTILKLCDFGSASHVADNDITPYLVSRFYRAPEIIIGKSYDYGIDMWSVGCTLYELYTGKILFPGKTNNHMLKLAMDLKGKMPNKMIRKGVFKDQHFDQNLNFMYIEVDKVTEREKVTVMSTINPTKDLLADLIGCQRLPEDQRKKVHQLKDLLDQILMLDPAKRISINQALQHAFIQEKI
UniProt Q12866, sequence (whole entry, looked up): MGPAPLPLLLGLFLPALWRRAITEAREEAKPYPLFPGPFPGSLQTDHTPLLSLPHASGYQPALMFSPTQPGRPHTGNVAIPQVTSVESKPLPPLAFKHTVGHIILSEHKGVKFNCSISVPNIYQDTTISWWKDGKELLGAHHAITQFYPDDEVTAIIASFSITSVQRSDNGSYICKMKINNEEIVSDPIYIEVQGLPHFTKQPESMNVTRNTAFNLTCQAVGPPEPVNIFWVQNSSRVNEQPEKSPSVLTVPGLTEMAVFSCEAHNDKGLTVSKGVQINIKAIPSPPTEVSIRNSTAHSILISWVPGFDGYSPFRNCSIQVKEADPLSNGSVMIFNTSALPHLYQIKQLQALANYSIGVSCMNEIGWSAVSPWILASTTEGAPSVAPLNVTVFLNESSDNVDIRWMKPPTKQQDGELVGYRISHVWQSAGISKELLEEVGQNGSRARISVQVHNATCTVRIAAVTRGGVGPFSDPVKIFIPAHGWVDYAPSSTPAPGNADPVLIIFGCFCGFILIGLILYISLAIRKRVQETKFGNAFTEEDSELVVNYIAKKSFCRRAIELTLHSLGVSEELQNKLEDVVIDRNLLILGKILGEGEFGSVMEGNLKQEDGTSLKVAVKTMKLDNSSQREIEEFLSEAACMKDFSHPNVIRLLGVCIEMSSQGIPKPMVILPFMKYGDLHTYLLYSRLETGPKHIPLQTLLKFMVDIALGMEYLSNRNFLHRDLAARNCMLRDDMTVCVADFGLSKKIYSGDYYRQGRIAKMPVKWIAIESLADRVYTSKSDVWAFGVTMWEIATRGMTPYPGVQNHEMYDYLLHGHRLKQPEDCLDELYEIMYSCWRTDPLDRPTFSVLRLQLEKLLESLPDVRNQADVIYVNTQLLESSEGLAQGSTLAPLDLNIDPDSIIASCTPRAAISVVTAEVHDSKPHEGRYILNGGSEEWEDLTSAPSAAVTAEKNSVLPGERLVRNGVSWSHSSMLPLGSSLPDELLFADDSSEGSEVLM
UniProt O14757, sequence (whole entry, looked up): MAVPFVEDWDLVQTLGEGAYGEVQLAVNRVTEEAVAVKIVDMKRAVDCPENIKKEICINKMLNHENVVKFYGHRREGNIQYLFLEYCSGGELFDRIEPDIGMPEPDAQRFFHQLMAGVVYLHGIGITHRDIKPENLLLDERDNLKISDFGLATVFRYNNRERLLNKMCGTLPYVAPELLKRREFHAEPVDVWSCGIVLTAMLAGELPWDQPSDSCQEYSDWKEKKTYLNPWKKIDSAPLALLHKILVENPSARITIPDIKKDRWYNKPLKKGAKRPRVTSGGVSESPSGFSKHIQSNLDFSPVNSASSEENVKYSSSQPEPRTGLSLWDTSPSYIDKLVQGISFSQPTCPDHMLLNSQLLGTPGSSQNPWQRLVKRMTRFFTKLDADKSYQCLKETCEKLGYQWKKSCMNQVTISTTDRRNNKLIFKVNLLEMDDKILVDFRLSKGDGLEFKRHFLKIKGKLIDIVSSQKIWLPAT
UniProt P53667, sequence (whole entry, looked up): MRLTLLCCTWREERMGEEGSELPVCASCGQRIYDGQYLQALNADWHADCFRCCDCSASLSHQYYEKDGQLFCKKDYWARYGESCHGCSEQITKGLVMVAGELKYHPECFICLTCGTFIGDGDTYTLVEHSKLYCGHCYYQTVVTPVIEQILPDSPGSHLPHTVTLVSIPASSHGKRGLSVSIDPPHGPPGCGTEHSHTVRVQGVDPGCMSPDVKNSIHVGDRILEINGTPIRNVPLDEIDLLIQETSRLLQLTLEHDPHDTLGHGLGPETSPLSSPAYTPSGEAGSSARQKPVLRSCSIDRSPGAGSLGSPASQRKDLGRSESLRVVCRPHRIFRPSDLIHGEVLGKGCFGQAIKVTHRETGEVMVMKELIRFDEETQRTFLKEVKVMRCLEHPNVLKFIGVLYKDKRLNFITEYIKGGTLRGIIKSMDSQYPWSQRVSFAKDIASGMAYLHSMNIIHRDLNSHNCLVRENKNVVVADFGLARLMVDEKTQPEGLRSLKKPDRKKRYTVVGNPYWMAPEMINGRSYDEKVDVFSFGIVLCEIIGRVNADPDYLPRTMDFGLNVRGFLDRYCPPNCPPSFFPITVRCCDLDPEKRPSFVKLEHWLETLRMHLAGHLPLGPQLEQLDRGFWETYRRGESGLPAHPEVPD
UniProt Q92918, sequence (whole entry, looked up): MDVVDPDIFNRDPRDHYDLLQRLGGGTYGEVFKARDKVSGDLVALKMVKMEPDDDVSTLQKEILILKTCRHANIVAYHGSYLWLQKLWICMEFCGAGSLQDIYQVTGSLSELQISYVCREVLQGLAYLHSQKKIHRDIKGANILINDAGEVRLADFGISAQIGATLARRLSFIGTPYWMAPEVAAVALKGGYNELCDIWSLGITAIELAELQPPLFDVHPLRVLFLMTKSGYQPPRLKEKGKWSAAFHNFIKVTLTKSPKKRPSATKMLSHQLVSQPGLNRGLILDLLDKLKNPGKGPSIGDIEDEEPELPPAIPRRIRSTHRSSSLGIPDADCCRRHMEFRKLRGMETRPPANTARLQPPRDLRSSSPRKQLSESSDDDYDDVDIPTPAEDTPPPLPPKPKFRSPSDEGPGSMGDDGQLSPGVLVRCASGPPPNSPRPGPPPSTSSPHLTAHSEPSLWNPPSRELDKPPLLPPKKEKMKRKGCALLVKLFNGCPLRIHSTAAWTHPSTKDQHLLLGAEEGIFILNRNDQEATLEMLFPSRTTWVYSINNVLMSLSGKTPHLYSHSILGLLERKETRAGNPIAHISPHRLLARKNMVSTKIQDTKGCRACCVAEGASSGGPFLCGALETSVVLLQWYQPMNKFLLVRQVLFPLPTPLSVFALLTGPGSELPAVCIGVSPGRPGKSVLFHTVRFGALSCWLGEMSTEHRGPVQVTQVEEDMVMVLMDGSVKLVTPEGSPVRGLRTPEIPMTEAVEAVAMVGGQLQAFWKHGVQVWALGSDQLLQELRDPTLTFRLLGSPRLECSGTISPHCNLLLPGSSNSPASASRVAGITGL

Sample 1 — effect on: cell-free assay; technique: competition with immobilised ligand; tested at: 1 µM
Compound: CNC(=O)Nc1ccc2c(c1)CC[C@@]21OC(=O)N(CC(=O)N(Cc2ccc(F)cc2)[C@@H](C)C(F)(F)F)C1=O
target	remaining binding [%]
CHEK1 (Homo sapiens, UniProt O14757)	98
LRRK2 (Homo sapiens, UniProt Q5S007, G2019S)	100
LIM domain kinase 1 (LIMK1, Homo sapiens, UniProt P53667)	91
MERTK (Homo sapiens, UniProt Q12866)	82
LATS1 (Homo sapiens, UniProt O95835)	60
PRPF4B (Homo sapiens, UniProt Q13523)	86
MAP4K1 (Homo sapiens, UniProt Q92918)	99

Sample 2 — effect on: enzyme activity; action: inhibitor; tested at: 0.5 µM; reference: control
Target: Serine/threonine-protein kinase Sgk1 (SGK1, Homo sapiens, UniProt O00141)
UniProt O00141, sequence (whole entry, looked up): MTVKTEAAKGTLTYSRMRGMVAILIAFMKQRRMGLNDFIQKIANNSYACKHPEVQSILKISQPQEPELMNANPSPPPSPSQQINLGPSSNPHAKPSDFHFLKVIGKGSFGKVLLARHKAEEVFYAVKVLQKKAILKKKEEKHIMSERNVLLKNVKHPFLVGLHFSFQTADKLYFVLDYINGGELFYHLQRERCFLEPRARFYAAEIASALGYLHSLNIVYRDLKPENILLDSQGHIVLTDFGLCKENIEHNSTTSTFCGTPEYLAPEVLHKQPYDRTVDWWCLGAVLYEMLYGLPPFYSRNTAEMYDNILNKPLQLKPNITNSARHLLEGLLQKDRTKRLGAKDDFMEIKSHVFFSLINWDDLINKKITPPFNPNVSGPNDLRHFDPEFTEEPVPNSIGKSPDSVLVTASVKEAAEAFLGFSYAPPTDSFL
Structure (SMILES)	remaining activity [%]
COc1cc2ncnc(Nc3ccc(Oc4ccccc4)cc3)c2cc1OC	103
O=S(=O)(c1cccc2cnccc12)N1CCCNCC1	96.6
Nc1ccc2ncnc(NCCc3ccc(Oc4ccccc4)cc3)c2c1	104
Oc1ccc(-c2nc(-c3ccncc3)c(-c3ccc(F)cc3)[nH]2)cc1	101
O=C(CCCc1ccc(-c2ccccc2F)cc1)Nc1ccc(O)cc1	103
COc1ccc(OC)c2c(=S)c3ccccc3[nH]c12	125
CCOC(=O)c1c(C)[nH]c(/C=C2\C(=O)Nc3ccccc32)c1C	92
O=C(Nc1cccc(Nc2cc(Nc3cccc(C(F)(F)F)c3)ncn2)c1)C1CC1	94.8
NCCNc1ncc(C(N)=O)c(Nc2cccc(C(F)(F)F)c2)n1	95.1
O=c1c2ccccc2[nH]c(=S)n1CCN1CCC(=C(c2ccc(F)cc2)c2ccc(F)cc2)CC1	96
Nc1[nH]nc2nc3ccccc3nc12	114
OCC(O)CCON=C1C(c2c(O)[nH]c3ccccc23)=Nc2ccccc21 (centres unmarked)	51
Cc1ccc(NC(=O)c2ccc(CN3CCN(C)CC3)cc2)cc1Nc1nc(-c2cccnc2)cs1	111
Cc1cccc(-c2[nH]c(C(C)(C)C)nc2-c2ccc3c(c2)OCO3)n1	99.6
CC(C)[C@H](CO)Nc1nc(Nc2cc(N)cc(Cl)c2)c2ncn(C(C)C)c2n1	93.1
C#Cc1cccc(Nc2ncnc3cc(OCCOC)c(OCCOC)cc23)c1	122

Sample 3 — cell line: A-375; tested at: 100 µM; time: 18 h
SMILES	viability
O=C(O)CCCc1ccccc1	106%
O=C(O)c1cc(-c2ccccc2)nc2ccccc12	85.8%
CN(C)CCC(c1ccccc1)c1ccccn1 (centres unmarked)	101%
CCc1c(C)[nH]c2c1C(=O)C(CN1CCOCC1)CC2 (centres unmarked)	91%
CNC(=O)c1ccccc1Sc1ccc2c(/C=C/c3ccccn3)n[nH]c2c1	81.3%
C=C1CC[C@@H]2[C@](C)(CO)[C@H](O)CC[C@@]2(C)[C@@H]1C/C=C1/C(=O)OC[C@H]1O	77%
CCCN(CCC)C(=O)C(CCC(=O)O)NC(=O)c1ccccc1 (centres unmarked)	92%

Sample 4 — medium: EL4 tumour; dose: dose not given; reference: vehicle
Compound: CC(=O)N[C@@H](Cc1c[nH]c2ccccc12)C(=O)N[C@@H](CCC(=O)C=[N+]=[N-])C(=O)OC(C)C
assay	system	log2 fold change
refers to: glucose 1-phosphate	mouse, EL4 tumour-bearing	0.75
refers to: 2-hydroxy-3-methylvalerate	mouse, EL4 tumour-bearing	0.572
refers to: betaine aldehyde	Mus musculus	-1.43
refers to: tricarballylate	mouse, EL4 tumour-bearing	0.943
refers to: UDP-glucose	mouse, EL4 tumour-bearing	-1.51

Excerpt of the above (sample 1):
target	remaining binding [%]
PRPF4B (Homo sapiens, UniProt Q13523)	86
MAP4K1 (Homo sapiens, UniProt Q92918)	99
